Published values collected from several papers.
Every numbered part comes from another study and shows a few of its results, in no order. Changes are numbered by the printed parent chain.
Sequence of UniProt Q969T4 (whole entry, looked up): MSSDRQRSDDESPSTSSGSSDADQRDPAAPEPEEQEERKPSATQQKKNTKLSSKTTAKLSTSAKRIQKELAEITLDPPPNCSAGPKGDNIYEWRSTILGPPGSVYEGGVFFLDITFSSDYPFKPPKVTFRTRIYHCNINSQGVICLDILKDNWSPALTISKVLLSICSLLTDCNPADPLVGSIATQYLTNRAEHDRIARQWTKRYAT
Sequence of UniProt P63146 (whole entry, looked up): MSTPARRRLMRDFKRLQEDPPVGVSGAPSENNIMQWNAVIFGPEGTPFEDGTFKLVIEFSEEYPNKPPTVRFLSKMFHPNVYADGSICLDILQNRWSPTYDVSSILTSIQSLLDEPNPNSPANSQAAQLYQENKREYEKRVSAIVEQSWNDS
Sequence of UniProt Q712K3 (whole entry, looked up): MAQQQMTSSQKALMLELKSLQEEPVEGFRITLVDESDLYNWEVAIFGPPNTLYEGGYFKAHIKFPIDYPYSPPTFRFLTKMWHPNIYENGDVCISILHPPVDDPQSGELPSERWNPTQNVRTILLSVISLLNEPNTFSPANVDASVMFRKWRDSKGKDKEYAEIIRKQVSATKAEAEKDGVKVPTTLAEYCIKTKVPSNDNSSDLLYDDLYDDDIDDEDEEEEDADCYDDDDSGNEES
Sequence of UniProt Q9C0C9 (whole entry, looked up): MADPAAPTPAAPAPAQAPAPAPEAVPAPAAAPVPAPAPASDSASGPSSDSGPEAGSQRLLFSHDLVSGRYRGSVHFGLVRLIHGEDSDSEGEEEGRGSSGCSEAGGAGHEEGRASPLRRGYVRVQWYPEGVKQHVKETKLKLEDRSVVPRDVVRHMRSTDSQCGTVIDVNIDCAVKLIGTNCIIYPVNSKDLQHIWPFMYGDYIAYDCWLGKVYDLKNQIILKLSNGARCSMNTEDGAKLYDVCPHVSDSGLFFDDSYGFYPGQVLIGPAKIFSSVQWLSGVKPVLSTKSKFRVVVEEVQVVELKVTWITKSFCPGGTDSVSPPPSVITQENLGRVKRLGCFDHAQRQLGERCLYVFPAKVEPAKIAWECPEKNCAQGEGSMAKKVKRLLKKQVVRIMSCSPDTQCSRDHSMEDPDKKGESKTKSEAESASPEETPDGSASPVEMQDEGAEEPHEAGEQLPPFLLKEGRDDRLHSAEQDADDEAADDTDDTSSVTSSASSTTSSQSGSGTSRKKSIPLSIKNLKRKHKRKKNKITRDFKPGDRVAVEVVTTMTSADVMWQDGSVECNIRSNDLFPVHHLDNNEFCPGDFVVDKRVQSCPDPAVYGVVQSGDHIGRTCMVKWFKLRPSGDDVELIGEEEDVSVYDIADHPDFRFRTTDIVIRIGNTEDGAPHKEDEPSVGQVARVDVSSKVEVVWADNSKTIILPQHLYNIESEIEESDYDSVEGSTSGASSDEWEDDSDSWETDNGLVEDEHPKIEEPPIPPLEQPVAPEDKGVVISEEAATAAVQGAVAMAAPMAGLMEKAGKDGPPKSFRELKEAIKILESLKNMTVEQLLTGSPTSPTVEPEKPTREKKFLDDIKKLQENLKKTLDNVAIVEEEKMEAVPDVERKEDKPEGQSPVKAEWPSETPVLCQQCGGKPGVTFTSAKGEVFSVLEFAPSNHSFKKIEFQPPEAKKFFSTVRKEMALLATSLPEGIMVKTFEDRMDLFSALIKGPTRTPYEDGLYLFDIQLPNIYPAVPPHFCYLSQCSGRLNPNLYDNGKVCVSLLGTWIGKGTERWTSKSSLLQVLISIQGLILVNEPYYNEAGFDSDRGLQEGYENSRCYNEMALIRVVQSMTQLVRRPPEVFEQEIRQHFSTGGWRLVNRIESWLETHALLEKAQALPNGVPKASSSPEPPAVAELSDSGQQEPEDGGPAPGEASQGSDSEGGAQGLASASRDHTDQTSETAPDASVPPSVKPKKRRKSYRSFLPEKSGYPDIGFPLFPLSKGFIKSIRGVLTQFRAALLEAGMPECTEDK
Sequence of UniProt Q7Z7E8 (whole entry, looked up): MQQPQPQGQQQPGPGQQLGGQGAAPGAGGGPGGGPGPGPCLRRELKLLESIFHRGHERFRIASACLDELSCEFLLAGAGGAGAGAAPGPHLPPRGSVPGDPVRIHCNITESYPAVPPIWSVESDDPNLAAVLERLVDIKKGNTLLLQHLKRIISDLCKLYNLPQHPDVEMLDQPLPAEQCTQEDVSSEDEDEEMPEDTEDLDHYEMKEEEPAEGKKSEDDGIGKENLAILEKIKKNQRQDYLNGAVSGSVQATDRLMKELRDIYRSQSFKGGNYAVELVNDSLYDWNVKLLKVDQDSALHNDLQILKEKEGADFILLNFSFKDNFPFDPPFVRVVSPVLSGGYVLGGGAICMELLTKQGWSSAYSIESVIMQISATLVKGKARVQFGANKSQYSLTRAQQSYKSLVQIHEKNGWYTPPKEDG
Sequence of UniProt Q8N2K1 (whole entry, looked up): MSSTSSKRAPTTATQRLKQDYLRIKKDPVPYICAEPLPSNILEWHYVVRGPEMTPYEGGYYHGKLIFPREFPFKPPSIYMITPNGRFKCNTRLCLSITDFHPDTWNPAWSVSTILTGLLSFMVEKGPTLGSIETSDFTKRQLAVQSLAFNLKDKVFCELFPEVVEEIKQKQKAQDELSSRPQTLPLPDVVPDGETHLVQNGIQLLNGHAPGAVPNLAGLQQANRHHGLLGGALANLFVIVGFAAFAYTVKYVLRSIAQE
Sequence of UniProt Q9H832 (whole entry, looked up): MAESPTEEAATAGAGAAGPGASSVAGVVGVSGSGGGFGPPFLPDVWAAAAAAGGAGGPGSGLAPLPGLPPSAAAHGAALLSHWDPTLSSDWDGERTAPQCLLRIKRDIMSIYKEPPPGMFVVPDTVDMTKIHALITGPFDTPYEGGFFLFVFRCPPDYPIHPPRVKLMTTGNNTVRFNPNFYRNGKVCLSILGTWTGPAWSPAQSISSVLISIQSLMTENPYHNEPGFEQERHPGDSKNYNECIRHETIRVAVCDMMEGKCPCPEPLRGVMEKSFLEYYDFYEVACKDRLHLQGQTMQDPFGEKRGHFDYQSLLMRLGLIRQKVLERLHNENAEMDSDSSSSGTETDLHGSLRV
Sequence of UniProt O00762 (whole entry, looked up): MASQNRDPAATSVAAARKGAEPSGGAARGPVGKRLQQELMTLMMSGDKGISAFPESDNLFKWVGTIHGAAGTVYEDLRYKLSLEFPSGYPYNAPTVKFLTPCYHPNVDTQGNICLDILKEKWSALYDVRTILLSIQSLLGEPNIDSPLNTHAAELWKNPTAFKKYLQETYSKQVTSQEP
Sequence of UniProt P61081 (whole entry, looked up): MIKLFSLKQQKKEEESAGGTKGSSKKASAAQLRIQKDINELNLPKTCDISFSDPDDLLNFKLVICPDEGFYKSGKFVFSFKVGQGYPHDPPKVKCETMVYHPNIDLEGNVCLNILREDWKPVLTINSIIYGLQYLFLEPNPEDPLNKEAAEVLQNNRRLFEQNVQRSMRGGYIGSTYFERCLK
Sequence of UniProt P51668 (whole entry, looked up): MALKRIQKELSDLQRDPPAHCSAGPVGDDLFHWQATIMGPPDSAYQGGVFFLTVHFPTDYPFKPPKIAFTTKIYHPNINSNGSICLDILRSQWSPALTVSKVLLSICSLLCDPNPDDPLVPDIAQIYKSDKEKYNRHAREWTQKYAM
Sequence of UniProt Q9NPD8 (whole entry, looked up): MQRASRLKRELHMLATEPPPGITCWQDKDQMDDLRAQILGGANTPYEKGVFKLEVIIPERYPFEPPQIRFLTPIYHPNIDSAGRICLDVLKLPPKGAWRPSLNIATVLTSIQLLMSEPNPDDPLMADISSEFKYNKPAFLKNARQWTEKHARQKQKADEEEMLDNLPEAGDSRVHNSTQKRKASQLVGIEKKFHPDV
Sequence of UniProt Q9Y385 (whole entry, looked up): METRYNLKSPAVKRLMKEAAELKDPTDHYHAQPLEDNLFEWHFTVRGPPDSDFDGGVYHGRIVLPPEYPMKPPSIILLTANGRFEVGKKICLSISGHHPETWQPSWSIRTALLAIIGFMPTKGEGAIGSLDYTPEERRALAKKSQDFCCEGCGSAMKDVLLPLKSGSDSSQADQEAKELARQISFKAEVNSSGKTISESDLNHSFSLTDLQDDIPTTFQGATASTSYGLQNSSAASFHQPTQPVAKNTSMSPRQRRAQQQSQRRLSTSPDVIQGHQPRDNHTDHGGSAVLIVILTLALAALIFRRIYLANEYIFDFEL

Sample 1 — method: DHFR PCA, deep sequencing; matrix: yeast; together with: (+)-ABA 17 µM; reference: wild-type fitted maximum; direction: higher = stronger binding
Target: ABI1, truncated, D143A, DHFR fusion (Arabidopsis thaliana)
Setting: methotrexate growth selection, single substitutions
Parent: PYL1, truncated, DHFR fusion (Arabidopsis thaliana); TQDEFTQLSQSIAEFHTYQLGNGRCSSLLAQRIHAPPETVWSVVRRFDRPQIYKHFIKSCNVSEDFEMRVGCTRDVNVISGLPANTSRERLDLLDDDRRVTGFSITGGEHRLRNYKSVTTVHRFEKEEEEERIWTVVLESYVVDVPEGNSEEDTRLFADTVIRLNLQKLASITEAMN; partner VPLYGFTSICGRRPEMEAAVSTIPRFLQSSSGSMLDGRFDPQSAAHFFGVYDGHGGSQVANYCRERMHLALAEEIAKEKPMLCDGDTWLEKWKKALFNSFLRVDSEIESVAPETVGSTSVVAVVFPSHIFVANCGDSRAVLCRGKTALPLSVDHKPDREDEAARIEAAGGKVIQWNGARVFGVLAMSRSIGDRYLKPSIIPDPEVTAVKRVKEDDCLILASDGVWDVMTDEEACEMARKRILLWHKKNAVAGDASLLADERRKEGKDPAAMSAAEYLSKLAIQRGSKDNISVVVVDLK
| Change | relative binding score [%] |
| --- | --- |
| Q10G | 86.1 |
| K168R | 80.3 |
| T154M | 52.1 |
| Y53Q | 1.3 |
| P50H | -1.38 |
| G21C | 75.2 |
| G23V | 31.2 |
| H110Q | 14.4 |
| K54E | -8.15 |
| V161L | 63.3 |
| V70E | 67.6 |
| A175P | 61.2 |
| G148E | 53.2 |
| F157C | -10.2 |
| T119H | 4.18 |
| T39C | 78.5 |
| G107N | 36 |

Sample 2 — Sequence: B1 (PRKN RING domain); method: yeast two-hybrid; matrix: yeast; setting: mostly zero background; reference: not given; direction: higher = stronger interaction
B1: PRKN RING domain (UniProt O60260); chain LIATNSRNITCITCTDVRSPVLVFQCNSRHVICLDCFHLYCVTRLNDRQFVHDPQLGYSLPCVAGCPNSLIKELHH
| target | lacZ reporter activity |
| --- | --- |
| UBE2C UBC core domain (UniProt O00762) | 0 |
| UBE2I UBC core domain (UniProt P63279) | 0 |
| UBE2T UBC core domain (UniProt Q9NPD8) | 0 |
| UBE2O UBC core domain (UniProt Q9C0C9) | 0 |
| UBE2R2 UBC core domain (UniProt Q712K3) | 0 |
| UBE2M UBC core domain (UniProt P61081) | 0 |
| UBE2Q1 UBC core domain (UniProt Q7Z7E8) | 0 |
| UBE2E3 UBC core domain (UniProt Q969T4) | 0 |
| UBE2Z UBC core domain (UniProt Q9H832) | 0 |
| UBE2B UBC core domain (UniProt P63146) | 0 |
| BIRC6 UBC core domain (UniProt Q9NR09) | 0 |
| UBE2D1 UBC core domain (UniProt P51668) | 0 |
| UBE2J1 UBC core domain (UniProt Q9Y385) | 0 |
| UBE2J2 UBC core domain (UniProt Q8N2K1) | 0 |

Sample 3 — method: protein binding microarray; form: double-stranded DNA, one strand shown; matrix: in vitro; concentration: not given; reference: not given; direction: higher = stronger binding
Target: Histone acetyltransferase KAT6A, both winged helices, GST fusion (KAT6A, Homo sapiens, UniProt Q92794, residues 1-181)
Setting: 8-mer, flanks averaged, mean of 2 arrays, mostly near background
Construct (chain): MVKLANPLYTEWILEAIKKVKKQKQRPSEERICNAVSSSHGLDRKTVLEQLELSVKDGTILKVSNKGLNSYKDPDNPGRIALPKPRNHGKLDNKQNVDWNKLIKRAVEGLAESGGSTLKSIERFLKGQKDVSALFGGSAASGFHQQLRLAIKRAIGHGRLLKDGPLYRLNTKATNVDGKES
| Oligonucleotide | E-score |
| --- | --- |
| TTGATAAA | -0.0637 |
| ACCATCAG | -0.0407 |
| ATAAGCAA | -0.139 |
| AAACCCCA | -0.254 |
| ACGTTTAT | 0.101 |
| AATATTCT | -0.0772 |
| CAACATGC | 0.145 |
| AGGGGTAA | -0.309 |
| ACACTCTC | -0.0474 |
| CAACTTTA | -0.116 |
| CATTCGGG | 0.112 |
| CCATAAAC | -0.134 |
| AGATGTAT | -0.0855 |
| CTCGGTAC | -0.0909 |
| CCCCCTCC | -0.249 |
| AAAGTGAC | -0.0673 |
| TACCGATA | 0.0641 |
| CTCCTTTC | -0.0212 |
| ATGGTTAG | -0.0415 |
| TACGGCTA | 0.199 |
| CCGGCAGG | 0.17 |
| ATGGAAAC | -0.0752 |
| GAACCCAC | -0.0309 |
| CAGACTTC | -0.225 |
| ACTCATTC | -0.0173 |

Sample 4 — target: CCNB1, cyclin fold, Cln2 fusion (human); method: yeast growth competition, sequencing; matrix: yeast; setting: weak parent motif; reference: not given; direction: higher = stronger binding
Parent: ORC1 docking peptide (human); PRARKRLELGNLG
| Change | normalised enrichment score |
| --- | --- |
| G13Q | 0.532 |
| L9Q | 0.196 |
| N11A | 0.321 |
| N11E | 0.00872 |
| G10Y | 1.98 |
| L9N | 0.546 |
| R2H | 0.318 |
| G10F | 0.487 |
| R6V | 0.035 |
| L12V | 0.174 |
| L7W | 1.01 |
| K5A | 0.0821 |
| G13P | 0.377 |
| R2W | 0.93 |
| K5W | 0.671 |
| P1R | 0.562 |
| A3T | 1.05 |
| L9H | 0.371 |
| L9V | 1.18 |
| R4A | 0.932 |
| R4W | 0.469 |
| R2I | 0.915 |
| G13M | 0.267 |
| P1V | -0.152 |
| L12S | 0.735 |

Sample 5 — method: RNA Bind-n-Seq; form: RNA; matrix: in vitro; concentration: 100 nM; reference: input RNA pool; direction: higher = stronger binding
Target: RING finger protein unkempt homolog, zinc fingers 1-6, SBP tag (UNK, Homo sapiens, UniProt Q9C0B0, residues 30-357)
Sequence of UniProt Q9C0B0 (30-357, looked up): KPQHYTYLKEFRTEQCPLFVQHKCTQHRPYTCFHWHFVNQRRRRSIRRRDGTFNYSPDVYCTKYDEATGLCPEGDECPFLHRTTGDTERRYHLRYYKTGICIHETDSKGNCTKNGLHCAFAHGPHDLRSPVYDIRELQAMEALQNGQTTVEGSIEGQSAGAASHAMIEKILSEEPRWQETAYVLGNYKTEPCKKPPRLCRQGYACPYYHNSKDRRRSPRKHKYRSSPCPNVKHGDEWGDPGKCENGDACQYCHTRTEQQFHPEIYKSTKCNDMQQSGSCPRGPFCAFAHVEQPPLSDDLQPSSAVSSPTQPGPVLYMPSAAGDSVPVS
Setting: RNA with constant flanks, vertebrate orthologous sites, ends assumed
Constant ends, left off below: GGGAGUUCUACAGUCCGACGAUC … CAACAGAGGAUUGAGCAUCA
| Oligonucleotide | bound/input enrichment [ratio] |
| --- | --- |
| AUAAUCACUCUAAUUGUAAUCUGAAGAAAGUGUAACAUUGUGUAGCCUUUUUUGUAUAAAAUAGACAAAUAGAAAUGGUCCAAUUAGUUUCCUUUUUAAUAUGCUUAAAAUAAGCAGGUG | 1 |
| UAUUGUAUGUAGAGAAAAAAUUUUCCUUGACCCCAUUGUGAAAUUCCCUAGCAAUUUAUUUAGAAUCUUCAUUUUUCUCAUUCAAGCUCACUGUAUUAGUUAUUUUUAGCUCAUAAUUAA | 3.45 |
| UUGGGACCAAUUCUCCAAAUAGGAAUAGUAGUAAAAAAAAUAAGCAAAAUGAUAUUUGUAUAGAAAAAACAGAAGUUAAAUCAUGUAAAGUAAAUGCUGCCAGUGUUCCAGGCCCUAAAG | 0.982 |
| AUCCCUCAGUGACAGUAUGCCAUCUGUAGCCGAUUCCCACUCUAGUCAUUUUUCUGAAUUUAGUUGUUCUGACCUAGAAAGCAUGAAAACUUCUUGUAGUCAUGGUUCCAAUGAUUAUCA | 3.39 |
| AGUCAUUUAUAGCAAUUACAGUGGGUUGCCCCUCUACCUCUCCCAAGAAGGAAUCCCAAAUAGAUUCCUUUCAUGUCAGAUUAUACUGUUCUGAUUUUAUUUUCUAUUAUUUUUACAUAU | 1.75 |
| GUGUUUUGCACAGGGCAUUCUCUGUACUAGUUUGUUGUGGUUAUAAAACAAUUAGCAAAACAGCUUACAUUUGUAUUUAUUUUCUAUUCCAUACUUCUCUGCCCAUGGUUUUUUUUUUCC | 1.13 |
| CCUGCUCCUCCUGGGUGUGUGACCGCGGGGGGAGUGUCCACCAGCGCUGCAGGGGGGCCGUGGUAUUUUUUUGCUGCCUCAGUCCCCAGAGCCUUCGAGCAGAAGUGGCAGUACGCUGUU | 0.277 |
| AUCCUCAACUCGCUCUAGCCUGUGACCCUUCAAAACUGGGCCAGGAUUAGUGCGAGGUGCUAGGAAUUGCCGUCUCUCGCGCCAUUGAUCAGAGAGACAGACAUUAAAACAGGAAUAUCA | 0.221 |
| AUCGCCUCUCAACCCCAUUUCCUCUGUCUCAUAGUGCAGAAGCACUCUUCAACUCUAUCUUAGCGGACUUGUUUUAAUUUUAGAGGAAUUUCCAGUACAGAUACUGUGAGCUGAUAUGGA | 0.687 |
| GAGAUGAGACCAUAGACAGGGGUAACUUAAUUUAUUUUAAUAAGAUACUGAGAACCACCUUAGUAGUAGGUUCCGUUGGCAAAUGUCAGCCUAUAUUCCAAAGUAUUCUAUAAUGGAAAU | 1.25 |
| GUGUUUUGGUACCAUUCAAUGUACCAAUACUCAUCCUUUUUUCAUUAUACCAACUAUCGCUAGAAGUAGGAGUUUAAUAUUUUUAAAAAUUUUACAUUGCUGUAUAUUCAAAAUUUUAAA | 0.689 |

For quick reference, copied from above (sample 3):
| Oligonucleotide | E-score |
| --- | --- |
| AAACCCCA | -0.254 |
| ACGTTTAT | 0.101 |
| AATATTCT | -0.0772 |
| CAACATGC | 0.145 |
| AGGGGTAA | -0.309 |
| ACACTCTC | -0.0474 |
| CAACTTTA | -0.116 |
| CATTCGGG | 0.112 |
| CCATAAAC | -0.134 |
| AGATGTAT | -0.0855 |
| CTCGGTAC | -0.0909 |
| CCCCCTCC | -0.249 |
| AAAGTGAC | -0.0673 |
